Results collected from several papers.
Parts stem from different laboratories: compare values within a part only.
Sequence of UniProt Q5BJF2 (whole entry, looked up): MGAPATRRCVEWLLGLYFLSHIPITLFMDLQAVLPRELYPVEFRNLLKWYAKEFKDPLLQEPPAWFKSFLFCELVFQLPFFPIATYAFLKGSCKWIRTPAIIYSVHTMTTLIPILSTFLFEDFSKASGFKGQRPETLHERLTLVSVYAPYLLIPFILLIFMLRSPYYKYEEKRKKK
Sequence of UniProt Q9UL54 (whole entry, looked up): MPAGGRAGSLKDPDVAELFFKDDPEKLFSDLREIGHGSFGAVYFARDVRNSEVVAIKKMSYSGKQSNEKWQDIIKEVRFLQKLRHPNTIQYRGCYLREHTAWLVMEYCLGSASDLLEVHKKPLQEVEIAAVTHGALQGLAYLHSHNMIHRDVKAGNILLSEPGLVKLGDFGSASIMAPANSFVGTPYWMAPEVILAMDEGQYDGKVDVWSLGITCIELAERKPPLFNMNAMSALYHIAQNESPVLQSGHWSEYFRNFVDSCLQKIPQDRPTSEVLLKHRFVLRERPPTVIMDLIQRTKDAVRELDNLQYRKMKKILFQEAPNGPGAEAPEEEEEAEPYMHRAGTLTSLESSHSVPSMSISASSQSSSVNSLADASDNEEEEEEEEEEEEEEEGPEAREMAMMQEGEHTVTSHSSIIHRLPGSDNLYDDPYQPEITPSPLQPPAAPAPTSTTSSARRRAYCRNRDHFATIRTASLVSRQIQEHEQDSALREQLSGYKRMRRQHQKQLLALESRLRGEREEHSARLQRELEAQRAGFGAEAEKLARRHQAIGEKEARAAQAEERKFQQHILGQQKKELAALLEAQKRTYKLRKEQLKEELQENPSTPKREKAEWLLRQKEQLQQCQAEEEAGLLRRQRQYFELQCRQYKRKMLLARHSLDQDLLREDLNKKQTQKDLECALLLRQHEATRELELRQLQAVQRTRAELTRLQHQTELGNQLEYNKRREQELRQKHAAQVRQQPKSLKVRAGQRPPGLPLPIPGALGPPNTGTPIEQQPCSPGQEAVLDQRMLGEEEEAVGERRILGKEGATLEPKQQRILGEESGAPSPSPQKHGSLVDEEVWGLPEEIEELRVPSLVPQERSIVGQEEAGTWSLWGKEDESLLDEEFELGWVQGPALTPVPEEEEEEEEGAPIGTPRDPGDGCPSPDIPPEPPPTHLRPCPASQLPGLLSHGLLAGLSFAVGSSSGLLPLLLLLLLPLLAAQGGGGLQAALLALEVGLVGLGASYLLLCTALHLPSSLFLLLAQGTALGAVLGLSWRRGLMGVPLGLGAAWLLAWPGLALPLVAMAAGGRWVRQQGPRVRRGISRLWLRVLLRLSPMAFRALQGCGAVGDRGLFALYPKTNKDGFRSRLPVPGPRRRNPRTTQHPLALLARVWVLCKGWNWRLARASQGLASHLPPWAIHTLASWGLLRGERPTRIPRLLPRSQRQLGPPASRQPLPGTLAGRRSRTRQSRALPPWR
Sequence of UniProt P51812 (whole entry, looked up): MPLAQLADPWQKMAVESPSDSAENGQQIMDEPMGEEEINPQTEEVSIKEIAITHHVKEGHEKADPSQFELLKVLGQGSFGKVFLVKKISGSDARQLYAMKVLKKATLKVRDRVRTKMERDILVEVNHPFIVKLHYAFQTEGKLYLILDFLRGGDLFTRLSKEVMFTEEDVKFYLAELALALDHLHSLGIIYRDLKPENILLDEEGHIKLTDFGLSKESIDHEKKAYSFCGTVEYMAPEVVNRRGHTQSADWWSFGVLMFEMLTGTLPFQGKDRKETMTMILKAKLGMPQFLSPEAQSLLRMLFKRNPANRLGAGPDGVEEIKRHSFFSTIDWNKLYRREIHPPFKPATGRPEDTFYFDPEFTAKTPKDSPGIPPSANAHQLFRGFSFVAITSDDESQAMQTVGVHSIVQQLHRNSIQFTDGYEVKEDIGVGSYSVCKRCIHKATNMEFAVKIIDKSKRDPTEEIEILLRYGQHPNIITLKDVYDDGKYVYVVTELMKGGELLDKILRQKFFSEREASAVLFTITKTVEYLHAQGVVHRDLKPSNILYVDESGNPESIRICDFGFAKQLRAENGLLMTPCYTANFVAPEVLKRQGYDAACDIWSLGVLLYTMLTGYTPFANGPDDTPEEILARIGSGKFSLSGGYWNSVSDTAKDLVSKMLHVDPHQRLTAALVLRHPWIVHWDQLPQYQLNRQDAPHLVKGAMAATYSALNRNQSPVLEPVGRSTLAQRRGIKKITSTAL
Sequence of UniProt Q8NFD2 (whole entry, looked up): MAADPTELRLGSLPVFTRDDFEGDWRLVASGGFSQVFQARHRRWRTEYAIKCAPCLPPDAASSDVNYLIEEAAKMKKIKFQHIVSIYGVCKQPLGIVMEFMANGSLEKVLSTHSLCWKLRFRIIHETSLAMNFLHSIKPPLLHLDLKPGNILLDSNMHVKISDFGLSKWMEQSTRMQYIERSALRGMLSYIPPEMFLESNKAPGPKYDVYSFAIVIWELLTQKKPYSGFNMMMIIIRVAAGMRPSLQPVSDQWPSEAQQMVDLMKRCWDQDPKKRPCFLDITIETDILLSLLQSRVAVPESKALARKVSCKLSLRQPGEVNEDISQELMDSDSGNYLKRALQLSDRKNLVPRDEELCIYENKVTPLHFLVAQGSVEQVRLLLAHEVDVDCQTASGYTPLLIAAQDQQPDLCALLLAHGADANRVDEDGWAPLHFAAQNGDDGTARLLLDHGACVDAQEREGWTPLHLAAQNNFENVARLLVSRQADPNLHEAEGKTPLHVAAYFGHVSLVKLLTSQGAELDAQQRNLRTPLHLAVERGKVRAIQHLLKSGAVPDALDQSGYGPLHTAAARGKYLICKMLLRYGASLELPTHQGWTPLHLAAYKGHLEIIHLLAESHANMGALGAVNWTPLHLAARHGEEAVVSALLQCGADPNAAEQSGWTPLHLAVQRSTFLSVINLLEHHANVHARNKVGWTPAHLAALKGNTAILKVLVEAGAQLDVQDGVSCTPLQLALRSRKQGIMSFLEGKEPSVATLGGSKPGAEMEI
Sequence of UniProt Q8WTQ7 (whole entry, looked up): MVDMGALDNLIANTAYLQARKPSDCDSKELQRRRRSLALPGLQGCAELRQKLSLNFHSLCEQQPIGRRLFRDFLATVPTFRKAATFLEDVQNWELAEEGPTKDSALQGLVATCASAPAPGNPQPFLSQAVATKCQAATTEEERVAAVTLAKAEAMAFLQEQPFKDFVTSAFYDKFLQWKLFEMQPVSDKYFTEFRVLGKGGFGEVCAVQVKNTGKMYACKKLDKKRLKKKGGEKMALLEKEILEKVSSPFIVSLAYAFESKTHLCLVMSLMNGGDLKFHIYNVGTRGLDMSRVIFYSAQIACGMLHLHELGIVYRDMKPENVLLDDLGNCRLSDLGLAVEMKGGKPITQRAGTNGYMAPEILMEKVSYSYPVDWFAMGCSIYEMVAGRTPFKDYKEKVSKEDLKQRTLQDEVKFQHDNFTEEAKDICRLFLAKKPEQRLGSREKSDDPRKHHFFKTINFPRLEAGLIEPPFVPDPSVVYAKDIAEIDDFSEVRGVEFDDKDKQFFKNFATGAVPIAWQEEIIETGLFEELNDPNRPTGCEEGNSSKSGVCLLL
Sequence of UniProt P00519 (whole entry, unmodified, looked up): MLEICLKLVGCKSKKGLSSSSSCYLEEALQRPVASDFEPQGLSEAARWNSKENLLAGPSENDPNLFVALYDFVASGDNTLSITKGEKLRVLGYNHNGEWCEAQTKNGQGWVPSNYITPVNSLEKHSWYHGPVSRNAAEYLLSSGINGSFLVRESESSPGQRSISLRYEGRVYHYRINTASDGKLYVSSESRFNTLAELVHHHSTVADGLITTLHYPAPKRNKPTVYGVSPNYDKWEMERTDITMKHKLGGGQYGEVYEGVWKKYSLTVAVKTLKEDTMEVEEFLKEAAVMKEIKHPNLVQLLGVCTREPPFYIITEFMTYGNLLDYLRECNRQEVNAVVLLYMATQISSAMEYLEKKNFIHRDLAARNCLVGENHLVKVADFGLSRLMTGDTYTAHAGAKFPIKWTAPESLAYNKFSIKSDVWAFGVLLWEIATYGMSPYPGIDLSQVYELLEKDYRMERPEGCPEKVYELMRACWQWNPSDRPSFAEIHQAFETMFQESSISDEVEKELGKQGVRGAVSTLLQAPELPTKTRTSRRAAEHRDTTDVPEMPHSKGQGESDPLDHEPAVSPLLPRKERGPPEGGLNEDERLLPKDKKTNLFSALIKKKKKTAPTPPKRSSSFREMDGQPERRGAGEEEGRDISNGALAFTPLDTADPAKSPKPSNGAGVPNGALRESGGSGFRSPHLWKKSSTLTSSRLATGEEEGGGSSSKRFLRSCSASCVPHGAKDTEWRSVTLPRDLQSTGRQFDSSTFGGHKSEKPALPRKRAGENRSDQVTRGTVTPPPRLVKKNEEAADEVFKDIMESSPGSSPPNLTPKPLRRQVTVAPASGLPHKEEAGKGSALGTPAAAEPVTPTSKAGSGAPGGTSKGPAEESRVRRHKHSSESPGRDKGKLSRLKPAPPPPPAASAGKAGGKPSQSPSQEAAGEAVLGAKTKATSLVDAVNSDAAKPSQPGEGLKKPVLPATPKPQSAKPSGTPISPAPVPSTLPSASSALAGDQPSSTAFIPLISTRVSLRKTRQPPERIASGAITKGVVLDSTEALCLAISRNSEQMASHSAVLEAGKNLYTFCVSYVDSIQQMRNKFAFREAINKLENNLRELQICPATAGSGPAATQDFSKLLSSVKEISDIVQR

Series 1 — action: inhibitor; concentration: 1 µM
Compound: CO[C@@H]1[C@H](N(C)C(=O)c2ccccc2)C[C@H]2O[C@]1(C)n1c3ccccc3c3c4c(c5c6ccccc6n2c5c31)C(=O)NC4
Ribosomal protein S6 kinase alpha-3, C-terminal kinase domain (RPS6KA3, Homo sapiens, UniProt P51812) — inhibition: 7%.
CDK11B (Homo sapiens, UniProt P21127); enzyme activity — inhibition: 0%.
It gave 1% for inhibition (ANKK1 (Homo sapiens, UniProt Q8NFD2); enzyme activity).
It gave 99% for inhibition (GRK7 (Homo sapiens, UniProt Q8WTQ7); enzyme activity).
It gave 99% for inhibition (PIP4K2B (Homo sapiens, UniProt P78356); enzyme activity).
For TAOK2 (Homo sapiens, UniProt Q9UL54); enzyme activity: inhibition read 27%.
The inhibition was 28% (ROCK2 (Homo sapiens, UniProt O75116); enzyme activity).

Series 2 — read-out: enzyme activity; action: inhibitor; concentration: 0.5 µM; reference: control
Target: Cyclin-dependent kinase 5, with p35 (CDK5, Homo sapiens, UniProt Q00535)
Sequence of UniProt Q00535 (whole entry, looked up): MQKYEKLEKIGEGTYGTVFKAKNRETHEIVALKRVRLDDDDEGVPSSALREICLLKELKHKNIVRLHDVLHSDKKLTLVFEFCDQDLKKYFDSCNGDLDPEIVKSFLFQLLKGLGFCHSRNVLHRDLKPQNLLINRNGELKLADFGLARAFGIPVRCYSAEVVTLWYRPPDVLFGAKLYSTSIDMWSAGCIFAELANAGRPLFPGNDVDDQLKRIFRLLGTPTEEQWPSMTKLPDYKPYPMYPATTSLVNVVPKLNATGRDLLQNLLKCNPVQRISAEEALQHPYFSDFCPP
With `Cc1ccc(Nc2nccc(N(C)c3ccc4c(C)n(C)nc4c3)n2)cc1S(N)(=O)=O` the remaining activity was 99.3%.
With `C#Cc1cccc(Nc2ncnc3cc(OCCOC)c(OCCOC)cc23)c1` the remaining activity was 108%.
The remaining activity of `COc1cc2ncnc(Nc3ccc(Oc4ccccc4)cc3)c2cc1OC` is reported as 115%.
With `COc1ccc(OC)c2c(=S)c3ccccc3[nH]c12` the remaining activity was 86.4%.
For `Cc1ccc(NC(=O)c2ccc(CN3CCN(C)CC3)cc2)cc1Nc1nc(-c2cccnc2)cs1`, the remaining activity was 100%.
`Nc1ccc2ncnc(NCCc3ccc(Oc4ccccc4)cc3)c2c1` has a remaining activity of 103%.
The remaining activity of `CCOC(=O)c1c(C)[nH]c(/C=C2\C(=O)Nc3ccccc32)c1C` is reported as 96.8%.
With `CO[C@H]1C[C@@H]2CC[C@@H](C)[C@@](O)(O2)C(=O)C(=O)N2CCCC[C@H]2C(=O)O[C@H]([C@H](C)C[C@@H]2CC[C@@H](O)[C@H](OC)C2)CC(=O)[C@H](C)/C=C(\C)[C@@H](O)[C@@H](OC)C(=O)[C@H](C)C[C@H](C)/C=C/C=C/C=C/1C` the remaining activity was 99.5%.
`Nc1ncnc2n[nH]c(Nc3ccc(F)cc3)c12` gave a remaining activity of 98.6%.
`NCCNc1ncc(C(N)=O)c(Nc2cccc(C(F)(F)F)c2)n1` gave a remaining activity of 84.2%.
For `Cn1sc(=O)n(Cc2ccccc2)c1=O`, the remaining activity was 90.1%.
`COc1cc2nccc(Oc3ccc(NC(=S)NC(=O)c4ccccc4C)cc3)c2cc1OC` has a remaining activity of 100%.
The remaining activity of `COc1cc2ncnc(Nc3ccc(F)c(Cl)c3)c2cc1OCCCN1CCOCC1` is reported as 103%.
`OCC(O)CCON=C1C(c2c(O)[nH]c3ccccc23)=Nc2ccccc21` (centres unmarked) has a remaining activity of 14.3%.
With `Nc1[nH]nc2nc3ccccc3nc12` the remaining activity was 88.7%.

Series 3 — cell line: mouse MPNST tumor cells; technique: high-content immunofluorescence imaging; refers to: nuclear SOX9; concentration: 10 µM; time: 12 h; notes: mean of 2 replicates; reference: DMSO control; direction: higher = more nuclear SOX9
Under “nuclear SOX9 intensity”, `COc1cc(OC)c(NC(=O)Nc2cc(C)on2)cc1Cl` is recorded as 106 % of DMSO.
For `N#CC(c1ccccc1)(c1ccccc1)c1ccccc1Cl`, “nuclear SOX9 intensity” read 104 % of DMSO.
For `C=C[C@@]1(C)CC(=O)[C@]2(O)[C@@]3(C)[C@@H](O)CCC(C)(C)[C@@H]3[C@H](O)[C@H](OC(C)=O)[C@@]2(C)O1`, “nuclear SOX9 intensity” read 88.3 % of DMSO.
For `C[C@@H]1CN(c2cc(-c3n[nH]c4ccc(OC5(C)CC5)cc34)ncn2)C[C@H](C)O1`, “nuclear SOX9 intensity” read 128 % of DMSO.
For `COc1ccc(N(C)c2nc(C)nc3ccccc23)cc1`, “nuclear SOX9 intensity” read 225 % of DMSO.
`C[N+](C)(C)CCCCCC[N+](C)(C)C`: “nuclear SOX9 intensity” 113 % of DMSO.
`C/C(=N\NC(=O)C1C(=O)NCC1c1ccccc1)c1cccc(Br)c1` (centres unmarked) — result for “nuclear SOX9 intensity”: 88.6 % of DMSO.

Further values, each from its own experiment
`CN(C)C(=O)N1CC[C@H](N=C2Nc3cc(F)ccc3N(CC(F)F)c3ccc(Cl)cc32)C1` has a viability of 112% (sample B colorectal tumour organoid; 0.1 µM; reference: DMSO).
For `Cn1nc(C(F)(F)F)cc1-c1cnc(N2CCc3cc(S(=O)(=O)Nc4c(F)cc(Cl)cc4F)cc(N4CCCC4=O)c32)nc1`, the Ki was over 10 µM (TMEM97 (Homo sapiens, UniProt Q5BJF2); binding, radioligand binding).
The remaining binding of `C[C@H](NC(=O)Nc1cc2[nH]ncc2c(CO)n1)c1ccccn1` is reported as 100% (Tyrosine-protein kinase ABL1, non-phosphorylated (ABL1, Homo sapiens, UniProt P00519, F317I); binding, competition with immobilised ligand; 1 µM).
